{"data": "Measurements pooled from the literature", "note": "Numbered parts are unrelated; each lists some results of a single study. Changes are numbered by the printed parent chain.", "sequence of UniProt Q9H4A3 (whole entry, looked up)": "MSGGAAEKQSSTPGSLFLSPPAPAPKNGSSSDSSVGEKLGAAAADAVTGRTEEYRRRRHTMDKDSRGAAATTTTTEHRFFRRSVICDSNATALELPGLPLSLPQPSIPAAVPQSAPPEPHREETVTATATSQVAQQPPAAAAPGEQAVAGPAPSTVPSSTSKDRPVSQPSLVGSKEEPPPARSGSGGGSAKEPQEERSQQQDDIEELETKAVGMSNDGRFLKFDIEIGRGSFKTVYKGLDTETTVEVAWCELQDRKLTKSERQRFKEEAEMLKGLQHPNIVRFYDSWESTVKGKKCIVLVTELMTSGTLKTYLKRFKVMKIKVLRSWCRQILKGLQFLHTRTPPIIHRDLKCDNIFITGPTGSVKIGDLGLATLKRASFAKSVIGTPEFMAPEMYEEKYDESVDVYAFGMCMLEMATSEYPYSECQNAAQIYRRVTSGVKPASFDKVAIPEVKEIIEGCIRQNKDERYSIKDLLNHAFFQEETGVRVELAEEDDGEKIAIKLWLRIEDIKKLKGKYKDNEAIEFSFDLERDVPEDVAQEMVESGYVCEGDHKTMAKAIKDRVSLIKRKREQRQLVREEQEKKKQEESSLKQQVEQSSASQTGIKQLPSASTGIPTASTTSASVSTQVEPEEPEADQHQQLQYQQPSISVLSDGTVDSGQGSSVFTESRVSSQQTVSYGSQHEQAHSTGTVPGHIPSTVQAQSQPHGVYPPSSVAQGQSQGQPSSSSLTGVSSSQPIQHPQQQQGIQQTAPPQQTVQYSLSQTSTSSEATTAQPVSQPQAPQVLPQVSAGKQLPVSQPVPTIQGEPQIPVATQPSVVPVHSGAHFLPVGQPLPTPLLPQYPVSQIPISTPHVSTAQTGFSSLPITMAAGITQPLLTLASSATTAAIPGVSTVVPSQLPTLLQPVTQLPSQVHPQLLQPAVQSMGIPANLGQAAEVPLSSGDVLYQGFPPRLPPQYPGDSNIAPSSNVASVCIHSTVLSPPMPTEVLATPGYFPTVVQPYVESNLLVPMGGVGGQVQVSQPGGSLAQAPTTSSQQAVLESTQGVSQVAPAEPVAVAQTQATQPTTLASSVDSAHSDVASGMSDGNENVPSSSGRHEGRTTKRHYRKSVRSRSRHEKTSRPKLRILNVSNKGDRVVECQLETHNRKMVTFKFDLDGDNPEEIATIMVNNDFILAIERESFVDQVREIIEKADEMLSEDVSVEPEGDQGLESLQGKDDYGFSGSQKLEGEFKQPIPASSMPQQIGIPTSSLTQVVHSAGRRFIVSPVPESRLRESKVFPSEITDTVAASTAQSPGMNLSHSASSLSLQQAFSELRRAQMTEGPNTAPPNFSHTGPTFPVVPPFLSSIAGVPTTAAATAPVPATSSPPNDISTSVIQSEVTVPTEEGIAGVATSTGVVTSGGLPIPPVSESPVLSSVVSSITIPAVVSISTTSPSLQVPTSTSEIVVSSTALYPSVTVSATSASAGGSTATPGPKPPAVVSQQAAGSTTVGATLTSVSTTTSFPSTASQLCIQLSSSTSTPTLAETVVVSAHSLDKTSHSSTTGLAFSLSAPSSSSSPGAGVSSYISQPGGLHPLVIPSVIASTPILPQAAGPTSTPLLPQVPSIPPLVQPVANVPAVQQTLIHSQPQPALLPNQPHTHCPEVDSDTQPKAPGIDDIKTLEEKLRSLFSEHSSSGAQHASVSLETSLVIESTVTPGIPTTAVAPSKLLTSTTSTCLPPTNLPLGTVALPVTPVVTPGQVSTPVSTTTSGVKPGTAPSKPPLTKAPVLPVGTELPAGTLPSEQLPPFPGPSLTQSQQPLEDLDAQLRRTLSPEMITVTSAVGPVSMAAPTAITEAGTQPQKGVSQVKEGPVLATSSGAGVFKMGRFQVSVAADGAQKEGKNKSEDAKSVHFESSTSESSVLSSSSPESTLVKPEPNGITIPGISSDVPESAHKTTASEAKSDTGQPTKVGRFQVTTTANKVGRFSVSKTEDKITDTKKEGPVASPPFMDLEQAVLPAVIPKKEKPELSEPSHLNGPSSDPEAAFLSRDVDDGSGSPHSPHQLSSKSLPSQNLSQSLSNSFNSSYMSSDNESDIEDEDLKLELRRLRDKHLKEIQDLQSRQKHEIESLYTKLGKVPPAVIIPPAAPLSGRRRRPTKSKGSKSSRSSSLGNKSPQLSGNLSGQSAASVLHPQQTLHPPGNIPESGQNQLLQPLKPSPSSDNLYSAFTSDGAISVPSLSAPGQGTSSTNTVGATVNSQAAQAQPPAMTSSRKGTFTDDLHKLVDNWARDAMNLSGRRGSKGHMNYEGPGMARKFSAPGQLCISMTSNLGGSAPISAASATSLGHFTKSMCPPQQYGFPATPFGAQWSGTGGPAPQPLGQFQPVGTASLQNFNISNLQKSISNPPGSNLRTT"}
{"data": "Sample 1", "Substitution": "S26Y", "target": "ABI1, truncated, D143A, DHFR fusion (Arabidopsis thaliana)", "technique": "DHFR PCA, deep sequencing", "medium": "yeast", "setting": "methotrexate growth selection, single substitutions", "baseline": "wild-type fitted maximum", "direction": "higher = stronger binding", "starting sequence": "PYL1, truncated, DHFR fusion (Arabidopsis thaliana); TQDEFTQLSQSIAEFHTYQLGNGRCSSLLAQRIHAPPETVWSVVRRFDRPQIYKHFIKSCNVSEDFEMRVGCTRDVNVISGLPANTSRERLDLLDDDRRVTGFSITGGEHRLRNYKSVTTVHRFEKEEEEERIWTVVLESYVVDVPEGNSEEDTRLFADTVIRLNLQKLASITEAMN; partner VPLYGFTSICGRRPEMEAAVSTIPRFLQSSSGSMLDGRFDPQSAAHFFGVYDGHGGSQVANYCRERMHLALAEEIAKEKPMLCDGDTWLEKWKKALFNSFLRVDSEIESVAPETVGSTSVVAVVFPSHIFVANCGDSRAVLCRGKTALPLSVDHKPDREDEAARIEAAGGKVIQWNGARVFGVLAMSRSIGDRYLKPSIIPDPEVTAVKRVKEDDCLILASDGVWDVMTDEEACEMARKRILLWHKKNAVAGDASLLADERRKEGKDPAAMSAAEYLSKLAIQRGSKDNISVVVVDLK"}
{"setting": "together with: (+)-ABA 1.4 µM", "relative binding score [%]": 3.41}
{"setting": "together with: (+)-ABA 17 µM", "relative binding score [%]": 68.3}
{"setting": "together with: (+)-ABA 4.8 µM", "relative binding score [%]": 46.7}
{"setting": "together with: (+)-ABA 0.11 µM", "relative binding score [%]": 7.44}
{"setting": "together with: (+)-ABA 2500 µM", "relative binding score [%]": 93.2}
{"setting": "together with: (+)-ABA 58 µM", "relative binding score [%]": 77.1}
{"data": "Sample 2", "target": "Histone acetyltransferase KAT6A, winged helix 2, GST fusion (KAT6A, Homo sapiens, UniProt Q92794, residues 85-181)", "technique": "protein binding microarray", "form": "double-stranded DNA, one strand shown", "medium": "in vitro", "tested at": "not given", "setting": "8-mer, flanks averaged, mean of 2 arrays, mostly near background", "baseline": "not given", "direction": "higher = stronger binding", "Construct (chain)": "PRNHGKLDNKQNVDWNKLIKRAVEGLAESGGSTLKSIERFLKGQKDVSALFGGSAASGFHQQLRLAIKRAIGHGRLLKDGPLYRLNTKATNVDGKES"}
{"Strand": "AAACAGCC", "E-score": -0.15}
{"Strand": "ATGAAGCC", "E-score": 0.093}
{"Strand": "CTTCTGAA", "E-score": 0.0592}
{"Strand": "GAACATCA", "E-score": -0.038}
{"Strand": "GGACCTGA", "E-score": 0.0143}
{"Strand": "GAACGTTA", "E-score": -0.235}
{"Strand": "CAATCGTG", "E-score": -0.148}
{"Strand": "CTGATCAG", "E-score": 0.119}
{"data": "Sample 3", "target": "Protein C-ets-1 (ETS1, Homo sapiens, UniProt P14921, residues 1-441, K379A, full length assumed)", "technique": "protein-binding microarray", "form": "double-stranded DNA, one strand shown", "medium": "in vitro", "tested at": "not given", "setting": "k-mer, scored over probes, only values ≥0.25", "direction": "higher = stronger binding", "Construct (chain)": "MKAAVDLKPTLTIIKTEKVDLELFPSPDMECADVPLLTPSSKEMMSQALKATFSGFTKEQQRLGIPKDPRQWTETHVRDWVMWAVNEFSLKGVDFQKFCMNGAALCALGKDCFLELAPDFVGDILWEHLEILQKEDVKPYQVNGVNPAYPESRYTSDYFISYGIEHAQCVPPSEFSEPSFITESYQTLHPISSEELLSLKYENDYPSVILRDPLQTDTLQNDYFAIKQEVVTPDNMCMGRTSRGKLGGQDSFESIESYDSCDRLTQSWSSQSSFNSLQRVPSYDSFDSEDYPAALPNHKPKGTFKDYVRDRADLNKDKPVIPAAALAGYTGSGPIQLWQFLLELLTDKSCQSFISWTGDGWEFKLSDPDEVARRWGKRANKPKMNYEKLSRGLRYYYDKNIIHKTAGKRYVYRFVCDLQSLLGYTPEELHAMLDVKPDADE"}
{"Strand": "ACCGGGTA", "E-score": 0.414}
{"Strand": "CGGTGGGC", "E-score": 0.284}
{"Strand": "ACTCCGGA", "E-score": 0.321}
{"Strand": "CCGGGGAA", "E-score": 0.388}
{"Strand": "GACCGGTC", "E-score": 0.366}
{"Strand": "ACATCCGT", "E-score": 0.258}
{"Strand": "TGACGACA", "E-score": 0.28}
{"Strand": "ATACCCCG", "E-score": 0.337}
{"data": "Further values, each from its own experiment"}
{"SMILES": "Cc1nc(C2CCN(C(=O)c3ccc(OC(F)(F)F)cc3N)CC2)c2ncc(N3CCN(C)CC3)cc2n1", "target": "Serine/threonine-protein kinase WNK1 (WNK1, Homo sapiens, UniProt Q9H4A3)", "test": "cell-free assay, competition with immobilised ligand", "setting": "1 µM", "quantity": "remaining binding", "value": "94%"}
{"note": "Repeated from above (sample 1):"}
{"setting": "together with: (+)-ABA 2500 µM", "relative binding score [%]": 93.2}
{"setting": "together with: (+)-ABA 58 µM", "relative binding score [%]": 77.1}
